Experimental data collected from several papers.
Compare with care: the assays were run in different laboratories. “And” joins repeats or separate records; there may be more than shown. In brackets after ≈: the same amount, converted by molar mass.
Genome polyprotein NS2B-NS3 protease: Genome polyprotein, NS2B-NS3 protease (dengue virus type 2, UniProt P29990)

Structure (SMILES)	tested on	test	system	conditions	scale	endpoint	value
CCCOC(=O)N1c2cc(CNC)ccc2[C@H](NC(=O)C(=O)Nc2ccc(Cl)c(F)c2)[C@H]1CNC(=N)N	HIV-1	pseudovirus infection, Env pseudovirus neutralisation	TZM-bl, clade B T/F isolate d15_410_787	–	–	IC50	0.28 µM
CCCCCCCCCC(=O)N[C@@H](Cc1c[nH]c2ccccc12)C(=O)N[C@H](CC(N)=O)C(=O)N[C@@H](CC(=O)O)C(=O)N[C@@H]1C(=O)NCC(=O)N[C@@H](CCCNC(=O)OC2/C=C/CCCCC2)C(=O)N[C@@H](CC(=O)O)C(=O)N[C@H](C)C(=O)N[C@@H](CC(=O)O)C(=O)NCC(=O)N[C@H](CO)C(=O)N[C@@H]([C@H](C)CC(=O)O)C(=O)N[C@@H](CC(=O)c2ccccc2N)C(=O)O[C@@H]1C (stereo partly drawn)	Staphylococcus aureus	planktonic bacterial growth, isothermal microcalorimetry	MSSA	2.5 µg/mL, 24 h, 37 °C	–	peak heat flow	0 µW
CC1(C)[C@H](NC(=O)/C(=N\OC2(C(=O)O)CCCC2)c2csc(N)n2)C(=O)N1OS(=O)(=O)O	Serratia marcescens	agar dilution	ATCC 21074, susceptible	–	–	MIC	0.5 µg/mL (≈ 1.02 µM)
O=c1c(-c2nc3ccccc3s2)cc2c(n1NS(=O)(=O)c1ccc(Cl)cc1)CCCCCC2	hepatitis C virus	qRT-PCR	Huh7.5, genotype 4	concentration not given	–	viral load reduction	56.7%
O=C(NC(c1ccccn1)c1ccccn1)c1cc(-c2ccccc2)n(-c2ccccc2)n1	Genome polyprotein NS2B-NS3 protease	reporter gene	HeLa	–	–	EC50	11 µM
CC(C)(C)NCC(SS(=O)(=O)O)c1ccccc1 (stereo not drawn)	Schistosoma mansoni	perfusion day 52	infected Swiss Webster mice	600 mg/kg single dose, dosed day 7 post-infection	–	liver weight	4.6 g and 5.2 g and 3.2 g and 2.94 g
C=C(NC(=O)c1csc(-c2nc3c(cc2O)-c2nc(cs2)C(=O)NC(C(C)O)C(=O)NC(=C(C)OC)c2nc(cs2)C(=O)NC2c4nc(cs4)C(=O)NC(COC(=O)c4c5c6c(cccc6n4O)COC(=O)C(OC4CC(C)(O)C(N(C)C)C(C)O4)C2OC5)c2nc-3cs2)n1)C(N)=O (stereo not drawn)	Streptococcus pneumoniae	–	-25, immunocompromised mice, lung infection	bid dosing	–	ED50	4.33 mg/kg
CC1(C)[C@H](NC(=O)/C(=N\OCCN)c2nsc(N)n2)C(=O)N1OS(=O)(=O)O	Serratia marcescens	agar dilution	ATCC 21074, susceptible	–	–	MIC	16 µg/mL (≈ 37.8 µM)
Cc1ccccc1/C=C/C(=O)N[C@@H](CO)C(=O)N[C@H](C(=O)N[C@H](Cc1ccccc1)C(=O)N[C@@H]1C(=O)N2[C@@H](CC(=O)O)C(=O)Nc3ccccc3[C@@]2(O)[C@@H]1O)[C@@H](C)O	Mycobacterium avium	resazurin microtitre	104	4 days, 37 °C	–	MIC50	inactive
c1ccc(CC(c2c[nH]c3ccccc23)c2c[nH]c3ccccc23)cc1	Parabacteroides distasonis	bacterial growth, inhibitor, OD600	–	anaerobic	–	IC50	> 50 µM
Cc1cc(C(=O)Nc2nc3cccc(C)c3n2[C@H]2CCCCN(C(=O)/C=C/CN(C)C)C2)ccn1	Leishmania donovani	cell growth	HU3 axenic amastigotes	–	–	EC50	0.606 µM
CC(C)CS(=O)(=O)N[C@H]1CC[C@H](Nc2ncc3c(N4CCOCC4)n[nH]c3n2)CC1	Leishmania donovani	parasite growth	THP-1	intracellular, amastigote	–	EC50	0.368 µM
N=C(N)NCCC[C@@H]1NC(=O)[C@H](CCCNC(=N)N)NC(=O)[C@@H](CCCNC(=N)N)NC(=O)[C@@H](CCCNC(=N)N)NC(=O)[C@@H](C(c2ccccc2)c2ccccc2)NC(=O)[C@H](Cc2c[nH]c3ccccc23)NC(=O)[C@@H](C(c2ccccc2)c2ccccc2)NC1=O	Aspergillus fumigatus	–	Af 293	4 x MIC, 8 h	–	reduction of viable cells	> 85%
FC(F)(F)c1cccc(CNc2nc(NC3CCN(Cc4ccccc4)CC3)c3nc[nH]c3n2)c1	Cryptococcus neoformans	RNA-seq, item: PIK1 (CNAG_07744) mRNA	–	48 µg/mL, 3 h	reference: untreated wild type	log2 fold change	-0.564
c1ccc2c(Cc3c[nH]c4ccccc34)c[nH]c2c1	Bacteroides fragilis	microbial growth, absorbance	–	–	–	IC50	20 µM
COC1C=COC2(C)Oc3c(C)c(O)c4c(c3C2=O)C2=NC3(CCN(CC(C)C)CC3)NC2=C(NC(=O)C(C)=CC=CC(C)C(O)C(C)C(O)C(C)C(OC(=O)Nc2cnccn2)C1C)C4=O (stereo not drawn)	Mycobacteroides abscessus	intracellular growth, visual read	THP-1 derived macrophages, ATCC 19977	–	–	IC90	0.33 µM
Cc1cccc2c1N(C(=O)n1ccnn1)CC2	Arabidopsis thaliana	–	kai2 mutant	10 µM	–	germination rate	17.3%
Cc1ncsc1-c1ccc(C(C)NC(=O)C2CC(O)CN2C(=O)C(NC(=O)CCCCCCCCCCN2CCCC(Nc3ncc(Cl)c(Nc4ccccc4S(=O)(=O)C(C)C)n3)C2)C(C)(C)C)cc1 (stereo not drawn)	22Rv1	RNA-seq, item: N6AMT1	–	concentration not given	reference: DMSO	log2 fold change	-1.27
C[C@@H]1C(=O)O[C@@H](C)/C=C/C=C\[C@@H](C)[C@@H]2C=C[C@@H]3C[C@@]4(C)O[C@H]4[C@@H](C)[C@H]3[C@@H]2C(=O)C(Cl)(Cl)C1=O	Staphylococcus aureus	–	MSSA clinical isolate	resistant: CIP,DAP,MXF	–	MIC	0.0125 µg/mL (≈ 0.0252 µM)
COC1CN([C@H]2CC[C@H]([C@@]3(C)Oc4c(Cl)cc(C(=O)NCc5c(SC)cc(C)[nH]c5=O)c(C)c4O3)CC2)C1	–	RNA-seq, item: HS2ST1	human, whole blood	dose not given, 24 h	reference: pretreatment baseline	log2 fold change	1.55
NCc1ccc(CNC(=O)c2cc(-c3ccccc3)n(-c3ccccc3)n2)cc1	Genome polyprotein NS2B-NS3 protease	reporter gene	HeLa	–	–	EC50	17 µM
COc1ccc(NC(=O)COc2cccc(OCC(C)C)c2)cc1	Aspergillus fumigatus	microbial growth, broth dilution	MF5668	–	–	MIC50	16 µg/mL (≈ 48.6 µM)
O=Cc1c[nH]c2ccccc12	Parabacteroides distasonis	bacterial growth, inhibitor, OD600	–	anaerobic	–	IC50	> 50 µM
N=C(N)NCCC[C@@H]1NC(=O)[C@H](CCCNC(=N)N)NC(=O)[C@H](CCCNC(=N)N)NC(=O)[C@@H](CCCNC(=N)N)NC(=O)[C@H](Cc2ccc3ccccc3c2)NC(=O)[C@H](Cc2ccc3ccccc3c2)NC(=O)[C@H](Cc2ccc3ccccc3c2)NC1=O	Aspergillus fumigatus	fungal growth	–	–	–	MIC	> 64 µg/mL

A few entries again:
Structure (SMILES)	tested on	test	system	conditions	scale	endpoint	value
c1ccc(CC(c2c[nH]c3ccccc23)c2c[nH]c3ccccc23)cc1	Parabacteroides distasonis	bacterial growth, inhibitor, OD600	–	anaerobic	–	IC50	> 50 µM
COc1ccc(NC(=O)COc2cccc(OCC(C)C)c2)cc1	Aspergillus fumigatus	microbial growth, broth dilution	MF5668	–	–	MIC50	16 µg/mL (≈ 48.6 µM)
